Assay results from different studies.
A part holds a random share of what one study measured.

Series 1 — technique: competition protein-binding microarray; molecule type: double-stranded DNA, one strand shown; medium: in vitro; concentration: 2 µM; added: Pho4 competitor, 0.05 µM; direction: higher = stronger binding; constant ends, left off below: … GTCTTGATTCGCTTGACGCTGCTG
Target: Centromere-binding protein 1, full length, His-tagged (CBF1, Saccharomyces cerevisiae, UniProt P17106, residues 1-351)
Sequence of UniProt P17106 (whole entry, looked up): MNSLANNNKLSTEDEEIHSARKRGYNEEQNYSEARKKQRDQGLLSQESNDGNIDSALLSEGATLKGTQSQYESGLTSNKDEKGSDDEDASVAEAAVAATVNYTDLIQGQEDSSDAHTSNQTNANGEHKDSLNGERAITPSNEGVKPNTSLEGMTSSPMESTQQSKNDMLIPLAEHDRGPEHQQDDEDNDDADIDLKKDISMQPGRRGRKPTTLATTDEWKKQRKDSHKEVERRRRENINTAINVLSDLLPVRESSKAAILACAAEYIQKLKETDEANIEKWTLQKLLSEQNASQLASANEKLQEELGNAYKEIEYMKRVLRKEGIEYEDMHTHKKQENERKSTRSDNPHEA
Setting: whole 60-bp probe, lowest competitor level
Strand	fluorescence intensity
AAATGTATACCACTTCACGTGCCAGCGAGTAGGTTT	872 a.u.
CATTCACTATTTTGTCATGTGACGGAATGCCCCAAA	2190 a.u.
CATACCCAACCTTTTCACGTGCGGTAAGATATTTGT	786 a.u.
AAAGCGGTAATTTTTCACGTGTGGTCAAATATCTAT	1050 a.u.
GGTCCGGAACTGGTGTGCATGACAGCCGCGGAATGC	56.9 a.u.
AACCAGACGAGGTATTGCATGACGCGGAAATCGCAA	81.7 a.u.
CAAAAGGCATGGCCTGGCGTGCAAAATCCGTTGTTT	59.8 a.u.
TTATTTTATCAGAGCACCGTGGTCGACATCCAACGG	60.9 a.u.
CACCCAAGCGTTAGGCACGTGTGGGCCGGAGTTTAC	525 a.u.
TGAAGACAACTCGGCCACGTGGGTAAAAGAAGAAGC	1620 a.u.
AAAGCGGTAATTTGTCAAGTGGGTGCAGATATCTAT	94.6 a.u.
TGCGCAACAACTTGCCGTGTGGGTGTATGTCTAGAA	58 a.u.
CTTCTGTAAATTTGCCCTGTGGGTGGACGCGCCCCG	82 a.u.
CCTTTCCAGATGGCTCACATGTCCGGTCGTCCTCCA	138 a.u.
CTTTCCCGATCTTGGAGCGTGGGTGTAGCACATTTG	66.9 a.u.
TAGGGGCTCTCACAAAACGGGCACTACCTTTTGTTT	62.3 a.u.
CCTGCACCGACTCCGTGCGTGCGGAATTGGTAATGC	64.5 a.u.
TACCTGGGCATCCATCACGCTTCAGCCGCTCTGTGT	76.3 a.u.
GACCGAACGCCCAACATAAATTAGAATAAGTCGTCA	62.2 a.u.
GCCATCTGTCGGCCACACTTTGAGCAACAACTACAA	78.8 a.u.
CACATAAGGATAATTCACCTGCCAAGACGGCACAGG	68.6 a.u.
CGCGAACATCGGTCCCACGCTGATAGTCTCCACTAT	89 a.u.
GTCTTGTCTCATTTTCACGTGAAATTCCCCACTTCA	680 a.u.
GTAGCCCCACAATTTCACCTGCCATATAACATAAGG	75.4 a.u.
AGCGAGCCGGCGGCAATCGTGGGACGCGATGGCACT	64 a.u.

Series 2 — technique: protein binding microarray; molecule type: double-stranded DNA, one strand shown; medium: in vitro; concentration: not given; reference: not given; direction: higher = stronger binding
Target: Histone acetyltransferase KAT6A, both winged helices, GST fusion (KAT6A, Homo sapiens, UniProt Q92794, residues 1-181)
Setting: 8-mer, flanks averaged, mean of 2 arrays, mostly near background
Target sequence (chain): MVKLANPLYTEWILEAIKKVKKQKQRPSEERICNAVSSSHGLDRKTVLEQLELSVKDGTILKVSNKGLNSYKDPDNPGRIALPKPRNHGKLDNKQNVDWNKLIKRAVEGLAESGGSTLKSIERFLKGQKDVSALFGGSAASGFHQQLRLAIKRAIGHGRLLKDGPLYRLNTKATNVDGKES
Strand	E-score
CAATCGGA	-0.0447
ACGGACCT	0.193
CTCCCTTA	-0.264
CGCGTTGC	0.29
GCTCAAGA	-0.0865
ATGCATGA	-0.104
AACGTAAA	-0.103
GAGGGCGC	0.167
ATACTGAA	-0.0386
AGAGGAAC	-0.126
ACCTTGAA	-0.0997
TATATATA	0.0296
CGCTCTAG	0.0989
AGCTCTCG	-0.0951
AGACAATC	-0.101
AAAAACTT	-0.105
ATCTCTAG	-0.137
ACGGTCCA	0.077
AATACTAT	-0.0832
CGCTAGAG	0.201
CGCTGATA	0.124
ATGTACAC	-0.0644
AGCGTGGC	-0.00822
TAAGTACA	-0.171
GAGTTGGC	-0.162

Series 3 — technique: RNA Bind-n-Seq; molecule type: RNA; medium: in vitro; concentration: 200 nM; setting: whole 134-nt RNA, ends assumed; added: 150 mM KCl; reference: input library; direction: higher = stronger binding
Target: Ras GTPase-activating protein-binding protein 1, full length (G3BP1, Homo sapiens, UniProt Q13283)
Sequence of UniProt Q13283 (whole entry, looked up): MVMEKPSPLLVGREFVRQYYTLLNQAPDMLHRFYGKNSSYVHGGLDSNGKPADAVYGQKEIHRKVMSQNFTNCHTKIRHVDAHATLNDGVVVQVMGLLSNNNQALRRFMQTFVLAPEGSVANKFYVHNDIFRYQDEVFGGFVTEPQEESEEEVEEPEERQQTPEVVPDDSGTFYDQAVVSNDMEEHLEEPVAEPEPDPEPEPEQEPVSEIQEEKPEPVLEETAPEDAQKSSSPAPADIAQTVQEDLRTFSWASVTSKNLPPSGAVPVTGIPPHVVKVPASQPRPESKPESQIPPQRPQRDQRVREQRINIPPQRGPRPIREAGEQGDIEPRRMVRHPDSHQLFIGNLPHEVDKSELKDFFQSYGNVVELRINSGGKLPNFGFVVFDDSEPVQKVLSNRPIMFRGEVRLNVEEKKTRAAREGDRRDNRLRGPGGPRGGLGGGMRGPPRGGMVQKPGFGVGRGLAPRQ
Constant ends, left off below: GGGAGUUCUACAGUCCGACGAUC … UGGAAUUCUCGGGUGUCAAGG
Strand	log2 enrichment
GCAGGAAGUAAAAACAAUUGGAAAUGCUUCGGAUAGUGGCAGGGGUGGGGGUUGCUAAGGAAAGGGUGGGAUGGGAGUGGGUAAAGAGUU	0.755
UGGCCCUGGUGGCAUGCGGGGAGGAAGAGGUGGCCUCAUGGAUCGUGGUGGUCCCGGUGGAAUGUUCAGAGGUGGCCGUGCUGGAGACAG	-0.0521
CCUCAAGUCCUGUGCUACACAUCGUAUGUACCGAAUCGGAAGGGGAAGGAAGGAAAGUAUUAUGUUACGCCGUUCGGAUCUGCACUUCCA	-0.506
CAAGUCCUGUGCUACACAUCGUAUGUACCGAAUCGGUUUGGUUUUUGGUUUUUGGAAAGUAUUAUGUUACGCCGUUCGGAUCUGCACUUC	-0.966
ACCAUGCAGGUGGGCAUCUUUGGGAAGUGGGGCAAGGGGGGGAUAGGGAGGGGGGUAACACUUUGGGAACACGUGGUCCCAGGUCGUUUC	0.739
UUUCCCCUGGAGGGCGCCUCCAUCCUUGGAGGCCUAGUGCCGUCGGAGAGAGAGCGGGAGCCGCGGACAGAGACGCGUGCGCAAUUCGGA	-0.942
CUCAAGUCCUGUGCUACACAUCGUAUGUACCGAAUCGGAAAAAGGAAAGGUGGAAAGUAUUAUGUUACGCCGUUCGGAUCUGCACUUCCA	-0.759
UCAAGUCCUGUGCUACACAUCGUAUGUACCGAAUCGGGAGGGAAAGGGUUUGGGAAAGUAUUAUGUUACGCCGUUCGGAUCUGCACUUCC	0.971
CUCAAGUCCUGUGCUACACAUCGUAUGUACCGAAUCGGAAGGGAAGGGAAGGGGAAAGUAUUAUGUUACGCCGUUCGGAUCUGCACUUCC	0.493
CUGUGCUACACAUCGUAUGUACCGAAUCGGGGAAAAAGGGGUUUUUUUGGGGUUUUUGGGGAAAGUAUUAUGUUACGCCGUUCGGAUCUG	-0.147

Series 4 — technique: universal PBM; molecule type: double-stranded DNA, one strand shown; medium: in vitro; concentration: not given; direction: higher = stronger binding
Target: Sal-like protein 4, full length isoform B (SALL4, Homo sapiens, UniProt Q9UJQ4-2, residues 1-616)
Setting: 8-mer, flanks averaged, mean of replicates
Strand	E-score
CACAAGCG	-0.103
CACATCAA	0.00117
AGGGTTGC	-0.0767
TCCGGAGA	-0.174
CAGCGGGC	-0.225
TCTAACAA	0.222
GCCGACAC	-0.225
CACCGAGC	-0.213
TACCCCCA	0.0329
CCACTAAG	-0.162
CGTTACTA	0.189
GAGCTGGA	-0.278
AGCCGAAC	-0.147
AAAATCAC	0.123
TGTAAGAA	0.134
CTAAAGAA	0.00986
AACTATGA	0.248
AGCTCAAA	0.101
GGACCGTA	-0.18
ACTCGGCG	-0.292
ACCTTTAC	0.136
CTATCGGC	-0.0932
CCGTTCAC	-0.186
ATACGCCA	0.0872
AATTTTAT	0.354
